{"data": "Results of several laboratories", "OfChi-h": "Chitinase (OfChi-h, Ostrinia furnacalis, UniProt Q4AE59)", "ppa": "Inorganic pyrophosphatase (ppa, Escherichia coli, UniProt P0A7A9)", "TDP1": "Tyrosyl-DNA phosphodiesterase 1 (TDP1, Homo sapiens, UniProt Q9NUW8)", "Uncharacterized protein": "Uncharacterized protein (Trypanosoma brucei brucei, UniProt Q386Q8)", "TACR3": "Neuromedin-K receptor (TACR3, Homo sapiens, UniProt P29371)", "note": "± marks the error that the study gave.", "chain of UniProt Q9NUW8 (whole entry, looked up)": "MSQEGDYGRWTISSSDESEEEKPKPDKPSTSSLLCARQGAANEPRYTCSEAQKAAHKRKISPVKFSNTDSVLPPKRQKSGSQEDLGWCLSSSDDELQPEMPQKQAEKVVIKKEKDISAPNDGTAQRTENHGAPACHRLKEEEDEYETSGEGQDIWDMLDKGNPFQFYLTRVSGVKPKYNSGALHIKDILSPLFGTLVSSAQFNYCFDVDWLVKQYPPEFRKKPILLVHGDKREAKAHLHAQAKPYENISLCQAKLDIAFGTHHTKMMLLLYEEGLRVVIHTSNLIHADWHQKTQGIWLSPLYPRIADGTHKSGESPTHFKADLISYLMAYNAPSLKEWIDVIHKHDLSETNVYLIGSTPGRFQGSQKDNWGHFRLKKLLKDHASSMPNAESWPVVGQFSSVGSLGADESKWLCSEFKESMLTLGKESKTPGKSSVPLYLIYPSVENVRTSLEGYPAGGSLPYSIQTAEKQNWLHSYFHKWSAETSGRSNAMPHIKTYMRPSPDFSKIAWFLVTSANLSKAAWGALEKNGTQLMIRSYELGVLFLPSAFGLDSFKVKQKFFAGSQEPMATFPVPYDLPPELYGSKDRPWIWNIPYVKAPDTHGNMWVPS", "chain of UniProt P0A7A9 (whole entry, looked up)": "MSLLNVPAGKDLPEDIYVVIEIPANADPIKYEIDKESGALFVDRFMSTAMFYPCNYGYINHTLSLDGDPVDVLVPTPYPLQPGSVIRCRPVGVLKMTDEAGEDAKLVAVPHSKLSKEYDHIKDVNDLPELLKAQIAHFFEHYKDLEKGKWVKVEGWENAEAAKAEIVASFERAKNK", "chain of UniProt P29371 (whole entry, looked up)": "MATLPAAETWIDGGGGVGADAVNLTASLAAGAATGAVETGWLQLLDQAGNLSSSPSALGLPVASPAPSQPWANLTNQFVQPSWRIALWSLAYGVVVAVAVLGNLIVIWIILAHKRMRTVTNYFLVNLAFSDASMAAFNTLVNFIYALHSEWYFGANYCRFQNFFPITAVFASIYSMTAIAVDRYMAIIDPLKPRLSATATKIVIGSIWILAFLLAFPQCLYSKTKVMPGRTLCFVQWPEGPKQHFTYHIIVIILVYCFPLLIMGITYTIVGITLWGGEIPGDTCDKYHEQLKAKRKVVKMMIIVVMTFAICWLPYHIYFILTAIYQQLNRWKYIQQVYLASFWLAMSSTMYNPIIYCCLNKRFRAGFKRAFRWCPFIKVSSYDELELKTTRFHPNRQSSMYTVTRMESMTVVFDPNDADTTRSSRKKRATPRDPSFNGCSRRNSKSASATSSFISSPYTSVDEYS", "chain of UniProt P08912 (whole entry, looked up)": "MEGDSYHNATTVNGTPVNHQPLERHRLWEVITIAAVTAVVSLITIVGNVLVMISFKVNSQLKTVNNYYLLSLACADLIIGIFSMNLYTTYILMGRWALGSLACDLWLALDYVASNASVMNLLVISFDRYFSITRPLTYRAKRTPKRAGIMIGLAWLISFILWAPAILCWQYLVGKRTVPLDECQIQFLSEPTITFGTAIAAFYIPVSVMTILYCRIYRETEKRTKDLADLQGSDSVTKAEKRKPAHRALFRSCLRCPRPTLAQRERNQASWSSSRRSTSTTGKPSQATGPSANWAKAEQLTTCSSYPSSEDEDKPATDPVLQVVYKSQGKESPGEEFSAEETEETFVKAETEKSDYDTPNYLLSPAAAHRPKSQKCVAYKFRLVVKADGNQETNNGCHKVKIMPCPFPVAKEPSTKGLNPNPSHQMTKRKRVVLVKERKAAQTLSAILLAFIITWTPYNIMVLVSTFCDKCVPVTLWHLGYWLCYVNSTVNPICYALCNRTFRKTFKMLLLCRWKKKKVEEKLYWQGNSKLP", "chain of UniProt O75365 (whole entry, unmodified, looked up)": "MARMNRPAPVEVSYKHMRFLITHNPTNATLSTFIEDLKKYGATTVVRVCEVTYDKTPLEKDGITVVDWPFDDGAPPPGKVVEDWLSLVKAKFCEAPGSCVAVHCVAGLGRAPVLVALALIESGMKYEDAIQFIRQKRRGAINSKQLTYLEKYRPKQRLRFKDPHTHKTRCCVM", "chain of UniProt O43497 (whole entry, looked up)": "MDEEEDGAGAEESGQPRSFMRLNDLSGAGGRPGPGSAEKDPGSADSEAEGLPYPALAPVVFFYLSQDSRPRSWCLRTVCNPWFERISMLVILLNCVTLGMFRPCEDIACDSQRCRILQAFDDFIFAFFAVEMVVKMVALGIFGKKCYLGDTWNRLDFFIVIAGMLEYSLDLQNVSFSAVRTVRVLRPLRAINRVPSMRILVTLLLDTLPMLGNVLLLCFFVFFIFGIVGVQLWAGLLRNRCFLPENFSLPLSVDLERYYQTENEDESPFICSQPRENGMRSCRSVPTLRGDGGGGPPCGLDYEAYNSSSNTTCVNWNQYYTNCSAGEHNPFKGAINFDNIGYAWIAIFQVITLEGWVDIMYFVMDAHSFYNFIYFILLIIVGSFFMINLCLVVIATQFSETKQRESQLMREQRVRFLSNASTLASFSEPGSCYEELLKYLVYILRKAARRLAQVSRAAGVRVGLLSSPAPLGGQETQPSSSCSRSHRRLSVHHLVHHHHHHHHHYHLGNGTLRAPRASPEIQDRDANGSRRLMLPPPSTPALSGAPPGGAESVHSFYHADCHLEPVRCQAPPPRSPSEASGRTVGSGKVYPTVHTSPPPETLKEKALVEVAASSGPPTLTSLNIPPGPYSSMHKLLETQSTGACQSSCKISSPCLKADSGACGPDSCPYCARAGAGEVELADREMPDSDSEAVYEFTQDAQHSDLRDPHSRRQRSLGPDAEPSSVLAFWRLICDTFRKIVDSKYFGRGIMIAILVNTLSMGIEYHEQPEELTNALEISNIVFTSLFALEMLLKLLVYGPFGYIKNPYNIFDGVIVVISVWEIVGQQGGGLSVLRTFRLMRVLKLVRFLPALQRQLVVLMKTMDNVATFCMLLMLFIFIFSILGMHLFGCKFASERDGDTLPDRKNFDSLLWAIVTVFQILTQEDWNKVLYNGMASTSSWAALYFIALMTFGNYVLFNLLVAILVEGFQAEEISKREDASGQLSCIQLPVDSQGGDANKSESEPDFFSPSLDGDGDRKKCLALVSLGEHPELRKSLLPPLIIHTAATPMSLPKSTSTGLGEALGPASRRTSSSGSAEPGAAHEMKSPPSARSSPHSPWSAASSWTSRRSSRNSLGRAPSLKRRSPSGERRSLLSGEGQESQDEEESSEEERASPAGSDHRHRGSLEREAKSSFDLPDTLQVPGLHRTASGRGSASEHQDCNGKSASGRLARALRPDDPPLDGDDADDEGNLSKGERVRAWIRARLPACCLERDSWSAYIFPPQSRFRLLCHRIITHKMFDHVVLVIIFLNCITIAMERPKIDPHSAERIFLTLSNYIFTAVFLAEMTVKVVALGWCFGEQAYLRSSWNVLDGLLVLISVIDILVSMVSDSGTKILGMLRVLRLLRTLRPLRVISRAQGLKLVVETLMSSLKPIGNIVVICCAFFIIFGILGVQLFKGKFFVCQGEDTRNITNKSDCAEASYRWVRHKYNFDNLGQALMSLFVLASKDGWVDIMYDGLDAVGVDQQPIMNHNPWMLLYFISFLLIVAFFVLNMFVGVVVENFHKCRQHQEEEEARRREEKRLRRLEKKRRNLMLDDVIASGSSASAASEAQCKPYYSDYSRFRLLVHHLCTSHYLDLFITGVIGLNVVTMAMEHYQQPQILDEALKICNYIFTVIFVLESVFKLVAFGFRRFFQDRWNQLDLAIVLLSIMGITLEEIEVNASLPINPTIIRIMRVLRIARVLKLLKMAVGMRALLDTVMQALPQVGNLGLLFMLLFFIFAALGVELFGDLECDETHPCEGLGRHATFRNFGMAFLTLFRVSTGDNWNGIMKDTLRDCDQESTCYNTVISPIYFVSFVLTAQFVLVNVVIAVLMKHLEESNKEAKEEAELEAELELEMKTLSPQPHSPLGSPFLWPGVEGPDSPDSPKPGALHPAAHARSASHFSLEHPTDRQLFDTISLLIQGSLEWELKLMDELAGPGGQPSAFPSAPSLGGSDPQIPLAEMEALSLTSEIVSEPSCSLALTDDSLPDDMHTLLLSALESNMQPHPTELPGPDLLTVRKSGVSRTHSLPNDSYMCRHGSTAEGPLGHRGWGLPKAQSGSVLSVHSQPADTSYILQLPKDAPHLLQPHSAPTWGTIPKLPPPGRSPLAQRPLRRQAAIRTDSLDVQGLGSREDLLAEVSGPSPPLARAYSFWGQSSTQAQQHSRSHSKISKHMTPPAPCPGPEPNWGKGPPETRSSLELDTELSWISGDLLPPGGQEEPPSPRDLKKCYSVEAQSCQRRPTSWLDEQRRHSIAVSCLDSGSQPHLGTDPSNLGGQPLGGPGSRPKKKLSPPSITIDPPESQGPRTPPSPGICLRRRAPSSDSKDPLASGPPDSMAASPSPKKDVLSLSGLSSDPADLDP", "chain of UniProt P43119 (whole entry, looked up)": "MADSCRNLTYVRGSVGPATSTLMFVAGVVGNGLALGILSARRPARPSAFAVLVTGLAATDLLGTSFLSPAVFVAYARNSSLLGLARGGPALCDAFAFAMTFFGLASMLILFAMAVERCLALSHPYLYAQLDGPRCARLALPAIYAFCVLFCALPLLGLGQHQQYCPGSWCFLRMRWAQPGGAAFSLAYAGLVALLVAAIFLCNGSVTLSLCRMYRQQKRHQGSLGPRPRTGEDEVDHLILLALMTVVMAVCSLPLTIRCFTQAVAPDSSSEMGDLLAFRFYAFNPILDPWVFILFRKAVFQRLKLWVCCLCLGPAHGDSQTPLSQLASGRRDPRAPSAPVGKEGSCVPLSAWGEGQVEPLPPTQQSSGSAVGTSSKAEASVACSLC", "chain of UniProt Q5U3Y7 (whole entry, looked up)": "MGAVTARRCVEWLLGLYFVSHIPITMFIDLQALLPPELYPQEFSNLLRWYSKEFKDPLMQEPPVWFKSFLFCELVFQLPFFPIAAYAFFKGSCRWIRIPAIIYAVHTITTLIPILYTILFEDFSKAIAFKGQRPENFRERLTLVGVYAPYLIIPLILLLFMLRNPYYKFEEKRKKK"}
{"Compound": "CN(C)c1nc(NCc2ccc(F)cc2)c(/N=N/c2ccc(Cl)cc2)c(N(C)C)n1", "target": "OfChi-h", "assay": "enzyme activity, inhibitor, fluorescence", "setting": "1 µM", "inhibition": "89.7%"}
{"Compound": "C[N+]1(Cc2ccccc2)CCN(CCCN2c3ccccc3Sc3ccc(Cl)cc32)CC1", "target": "ppa", "assay": "inhibitor, counter-screen, coupling enzyme alone", "setting": "30 µM", "inhibition": "29.3%"}
{"Compound": "COc1ccc(C(=O)Nc2c(-c3cccs3)nc3ccccn23)cc1", "target": "CHRM5 (Homo sapiens, UniProt P08912)", "assay": "ligand displacement, radioligand", "setting": "10 µM", "inhibition": "< 50%"}
{"Compound": "Cc1nc(C)c(C=NOCc2ccc(-c3nc4cc(-c5ccccc5)ccn4c3Nc3ccc(C(=O)O)cc3)cc2)s1", "target": "TDP1", "assay": "enzyme activity, inhibitor", "setting": "100 µM, unpurified compound", "inhibition": "39%"}
{"Compound": "Cn1ccc2cc(-n3c(=O)[nH]c4sc5c(c4c3=O)CCCC5)ccc21", "target": "EDNRB (Homo sapiens, UniProt P24530)", "assay": "cell-free assay", "setting": "10 µM", "inhibition": "-6%"}
{"Compound": "CC1=NN(c2cccc(F)c2)C(=O)/C1=N\\Nc1ccc(S(N)(=O)=O)cc1", "target": "bovine α-glucosidase", "assay": "enzyme activity, inhibitor, glucose oxidase", "setting": "100 µg/mL, together with: maltose", "inhibition": "30.5%"}
{"Compound": "C[N+](C)(CCCN1c2ccccc2CCc2ccc(Cl)cc21)Cc1ccccc1", "target": "ppa", "assay": "inhibitor, counter-screen, coupling enzyme alone", "setting": "30 µM", "inhibition": "51.5%"}
{"Compound": "CCCC(=O)O[C@@]1(C)CN(Cc2ccccc2)[C@H]2C[C@@H]1CC(=O)[C@@H]2C", "target": "Tmem97 (Rattus norvegicus, UniProt Q5U3Y7)", "assay": "ligand displacement, radioligand", "setting": "1 µM", "inhibition": "0%"}
{"Compound": "COc1ccc(C2NCCc3cc(O)c(O)cc32)cc1 (centres unmarked)", "target": "tyrosinase", "assay": "enzyme activity, inhibitor", "setting": "100 µM, together with: levodopa", "inhibition": "4.63 ± 2.45%"}
{"Compound": "CN(C)c1nc(NCc2ccccc2)c(/N=N/c2ccc(Cl)cc2)c(N(C)C)n1", "target": "OfChi-h", "assay": "enzyme activity, inhibitor, fluorescence", "setting": "1 µM", "inhibition": "70.1%"}
{"Compound": "O=C1c2sc(-c3ccc(N4CCC(F)C4)nc3F)nc2CCN1c1cccnc1 (centres unmarked)", "target": "RARA (Homo sapiens, UniProt P10276)", "assay": "ligand displacement, radioligand", "setting": "1 µM", "inhibition": "-3%"}
{"Compound": "CC(=O)NC1C(=O)N(c2ccccc2)N=C1C (centres unmarked)", "target": "Uncharacterized protein", "assay": "enzyme activity, inhibitor, coupled colorimetric", "setting": "30 µM, together with: E. coli pyrophosphatase coupling", "inhibition": "49.2%"}
{"Compound": "CN(Cc1ccc(/C=C/C(=O)NO)cc1)CC12CC3CC(CC(C3)C1)C2", "target": "human M1 receptor", "assay": "antagonist radioligand binding", "setting": "0.05 µM", "inhibition": "-5%"}
{"Compound": "CN(C)c1nc(NCc2c(F)cccc2C(F)(F)F)c(/N=N/c2ccc(Cl)cc2)c(N(C)C)n1", "target": "OfChi-h", "assay": "enzyme activity, inhibitor, fluorescence", "setting": "1 µM", "inhibition": "87.9%"}
{"Compound": "CC(=O)Nc1nc(C=NOCc2ccc3nc(-c4ccccc4)c(Nc4ccc(C(=O)O)cc4)n3c2)c(Br)s1 (mixture of isomers)", "target": "TDP1", "assay": "enzyme activity, inhibitor", "setting": "100 µM, unpurified compound", "inhibition": "30.8%"}
{"Compound": "C[Si](C)(C)C[C@H](CN)CC(=O)O", "target": "TACR3", "assay": "ligand displacement, radioligand", "setting": "250 µM", "inhibition": "-7%"}
{"Compound": "COc1ccc(S(=O)(=O)N2CCc3ccccc3C2)cc1N1CCN(C(=O)c2ccc(F)cc2C(F)(F)F)CC1", "target": "TACR3", "assay": "ligand displacement, radioligand", "setting": "1 µM", "inhibition": "1.5%"}
{"Compound": "CC(=O)Nc1sc2c(c1SC#N)CCCC2", "target": "ppa", "assay": "inhibitor, counter-screen, coupling enzyme alone", "setting": "30 µM", "inhibition": "49.6%"}
{"Compound": "CC(=O)C12NC(C)(C)CC1(C)C(=O)C1=C2c2c(c3c4n2C(C)(C)CC2=C4C4(CC(C)(C)NC(C)(C4)C2=O)CC3(C)C)C(=O)C(C)(C)N1 (single isomer, unassigned; (+))", "target": "CACNA1G (Homo sapiens, UniProt O43497)", "assay": "calcium current, antagonist, whole-cell patch clamp", "system": "HEK293T cells", "setting": "10 µM", "inhibition": "4.86 ± 0.12%"}
{"Compound": "O=C(O)c1ccc(Nc2c(-c3ccccc3)nc3ccc(CON=Cc4cccn4-c4sc5c(c4C(=O)O)CCCC5)cn23)cc1", "target": "TDP1", "assay": "enzyme activity, inhibitor", "setting": "100 µM, unpurified compound", "inhibition": "73.6%"}
{"Compound": "CN1CC[C@@H](COc2cnc(C#N)cc2-c2ccn3nc(NC(=O)C4CC4)cc3c2)C1", "target": "Tribbles homolog 2 (TRIB2, Homo sapiens, UniProt Q92519)", "assay": "enzyme activity, inhibitor", "setting": "1 µM", "inhibition": "10%"}
{"Compound": "O=C(O)c1ccc(Nc2c(-c3ccccc3)nc3ccc(CON=Cc4cnc5ccccc5c4)cn23)cc1", "target": "TDP1", "assay": "enzyme activity, inhibitor", "setting": "100 µM, unpurified compound", "inhibition": "-0.1%"}
{"Compound": "CN(C)c1cc(N)c2cc(Cl)ccc2n1", "target": "Uncharacterized protein", "assay": "enzyme activity, inhibitor, coupled colorimetric", "setting": "30 µM, together with: E. coli pyrophosphatase coupling", "inhibition": "38.6%"}
{"Compound": "Cn1c(C=NOCc2ccc(-c3nc4cc(-c5ccccc5)ccn4c3Nc3ccc(C(=O)O)cc3)cc2)ccc1-c1cccc([N+](=O)[O-])c1 (mixture of isomers)", "target": "TDP1", "assay": "enzyme activity, inhibitor", "setting": "100 µM, unpurified compound", "inhibition": "87.1%"}
{"Compound": "O=C1c2sc(-c3ccc(N4CCC(CO)CC4)nc3F)nc2CCN1c1cccnc1", "target": "PTGIR (Homo sapiens, UniProt P43119)", "assay": "ligand displacement, radioligand", "setting": "1 µM", "inhibition": "-7%"}
{"Compound": "CO[C@@H](C)c1c(NC(=O)Nc2cnc(-n3nccn3)c(C(F)(F)F)c2)cnc2sc(C)nc12", "target": "Nociceptin receptor (OPRL1, Homo sapiens, UniProt P41146)", "assay": "ligand displacement, radioligand", "setting": "10 µM", "inhibition": "8.9%"}
{"Compound": "COc1c(C=NOCc2ccc(-c3nc4cc(-c5ccccc5)ccn4c3Nc3ccc(C(=O)O)cc3)cc2)c(C)nn1C (mixture of isomers)", "target": "TDP1", "assay": "enzyme activity, inhibitor", "setting": "100 µM, unpurified compound", "inhibition": "60.3%"}
{"Compound": "C[N+](C)(CCCN1c2ccccc2CCc2ccc(Cl)cc21)Cc1ccc2ccccc2c1", "target": "ppa", "assay": "inhibitor, counter-screen, coupling enzyme alone", "setting": "30 µM", "inhibition": "46.5%"}
{"Compound": "Cc1nc2c(F)cc(-c3nc(Nc4ccc(CNC(=O)CCCCCCC(=O)NO)cc4)ncc3F)cc2n1C(C)C", "target": "Phosphatidylinositol 4,5-bisphosphate 3-kinase catalytic subunit alpha isoform, with p85 alpha (Pik3ca, Mus musculus, UniProt P42337, E545K)", "assay": "enzyme activity", "setting": "1 µM, p110α(E545K)/p85α)(m mouse", "inhibition": "26%"}
{"Compound": "O=C(CSc1nnc(-c2ccco2)c(-c2ccco2)n1)c1ccc(Br)cc1", "target": "ppa", "assay": "inhibitor, counter-screen, coupling enzyme alone", "setting": "30 µM", "inhibition": "2.6%"}
{"Compound": "Brc1ccccc1-c1nnc(CSc2nnnn2-c2ccccc2)o1", "target": "ADRB3 (Homo sapiens, UniProt P13945)", "assay": "ligand displacement, radioligand", "setting": "10 µM", "inhibition": "27%"}
{"Compound": "O=C(O)c1ccc(Nc2c(-c3ccccc3)nc3ccc(CON=Cc4c(-c5cccc(F)c5)nc5sccn45)cn23)cc1 (mixture of isomers)", "target": "TDP1", "assay": "enzyme activity, inhibitor", "setting": "100 µM, unpurified compound", "inhibition": "71.9%"}
{"Compound": "CCn1cc(C(=O)O)c(=O)c2c(N)c(F)c(NC3CCCCC3)cc21", "target": "MAP3K21 (Homo sapiens, UniProt Q5TCX8)", "assay": "kinase activity", "setting": "0.1 µM, together with: ATP at Km", "inhibition": "8.8%"}
{"Compound": "CN1CCN(Cc2ccc(-c3ccc(CO[C@H]4CCC[C@@H]4NC(=O)c4cc(-c5cnn(C)c5)cnc4N)cc3)cc2)CC1", "target": "PI4K2B (Homo sapiens, UniProt Q8TCG2)", "assay": "enzyme activity, inhibitor", "setting": "0.1 µM", "inhibition": "0%"}
{"Compound": "CC(=O)C1=C(c2ccc(F)cc2)N(C(C)=O)n2cnnc2S1", "target": "ppa", "assay": "inhibitor, counter-screen, coupling enzyme alone", "setting": "30 µM", "inhibition": "34.2%"}
{"Compound": "N#CCn1cc(C=NOCc2ccc3nc(-c4ccccc4)c(Nc4ccc(C(=O)O)cc4)n3c2)c2ccccc21 (mixture of isomers)", "target": "TDP1", "assay": "enzyme activity, inhibitor", "setting": "100 µM, unpurified compound", "inhibition": "77.8%"}
{"Compound": "C/C=C/C(=O)Nc1ccc2nc(NCCCCCN(C)C)nc(NCCCCCCN(C)C)c2c1", "target": "EHMT1 (Homo sapiens, UniProt Q9H9B1)", "assay": "enzyme activity, inhibitor, radiometric", "setting": "50 µM", "inhibition": "53%"}
{"Compound": "Oc1cc2c(cc1O)C(c1cccc3[nH]ccc13)NCC2 (centres unmarked)", "target": "tyrosinase", "assay": "enzyme activity, inhibitor", "setting": "100 µM, together with: levodopa", "inhibition": "29.3 ± 0.75%"}
{"Compound": "CN(C)C/C=C/C(=O)Nc1ccc2nc(NCCCCCN(C)C)nc(NCCCCCCN(C)C)c2c1", "target": "PRMT8 (Homo sapiens, UniProt Q9NR22)", "assay": "enzyme activity, inhibitor, radiometric", "setting": "10 µM", "inhibition": "51%"}
{"Compound": "Cc1ccnc(OC[C@H]2CN(CCN3CCc4ccccc43)CCO2)c1", "target": "HTR4 (Homo sapiens, UniProt Q13639)", "assay": "radioligand binding", "setting": "concentration not given", "inhibition": "45%"}
{"Compound": "CC(C)C(C)NC(=O)COC(=O)c1cc2c(s1)CCC2 (centres unmarked)", "target": "Protein tyrosine phosphatase type IVA 3, with CNNM4 CBS domain (PTP4A3, Homo sapiens, UniProt O75365)", "assay": "protein-protein interaction, inhibitor, HTRF", "setting": "10 µM", "inhibition": "74.9 ± 3.9%"}
